Experimental data from different studies.
“And” joins repeats or separate records; there may be more than shown. Numbers after ± are the reported error.

CCc1cc(C(=O)NC)c2nccc(N3CCc4c(cc(Cn5ccnc5)cc4-c4cn(C)nc4C(F)(F)F)C3=O)c2c1  blood TP (Sprague Dawley rats; oral, 50 mg/kg once daily, 7 days): 57.2 ± 0.87 g/L
CC(C)N(CCCNC(=O)Nc1ccc(C(C)(C)C)cc1)C[C@H]1O[C@@H](n2cc(Br)c3c(N)ncnc32)[C@H](O)[C@@H]1O  viability (OCI-Ly1; 0.1 µM, 120 h): 145%
C=CC(=O)N1CCCN(C(=O)c2cc(Sc3cnc(NC(=O)C4CC4)s3)c(C)cc2OC)C[C@H]1C  Th2 cytokine production (human Th2-polarized CD4 T cells; MSD, item: IL-4, IL-5, IL-13; polarized 6 days, added: anti-CD3/CD28 restimulation): inhibited
CCc1cnc(N2CCC(c3nc(COc4ccc(-n5cnnn5)cc4)cs3)CC2)nc1  log2 fold change (HEK293T; RNA-seq, item: SLC1A4 mRNA; 10 µM, 6 h; relative to: vehicle): 0.945
O=C(Nc1nnc2n3c(Cc4ccccc4)n[nH]c3nc(-c3ccc(Cl)cc3)c1-2)c1ccccc1  growth percent (786-0; NCI60 SRB; 10 µM): 96.8%
COc1cc(/C=C/C(=O)N2CCC=CC2=O)cc(OC)c1OC  mRNA level (MDA-MB-468; quantitative RT-PCR, item: PUMA; 30 µM, 8 h; relative to: untreated): 502 ± 54.3%
C#CCCC1(CCC(=O)N2[C@H](c3ccc4c(c3)OCO4)c3[nH]c4ccccc4c3C[C@@H]2C(=O)OC)N=N1  LC3 puncta formation (HeLa stably expressing GFP-LC3; concentration not given, 4 h): inactive
CCn1cc(-c2cc(Cn3ccoc3=N)cc3c2CCN([C@@H](C)c2cc(OC)ccn2)C3=O)c(C(F)(F)F)n1  EC50 (SCC-15; cell growth, inhibitor; 120 h): 0.33 µM
FC(F)(F)Sc1ccc(CNc2cccc3[nH]ccc23)cc1  viability (sample A patient iPSC-derived NPCs; MTS; 10 µM, 24 h; relative to: vehicle): 137 ± 19.7%
Cn1cc(-c2ccc(-c3cncc(Cl)c3N3CCC4(CCNC4=O)CC3)cc2)cn1  log2 fold change (COLO 205; gene expression, microarray, item: IRF7 mRNA; concentration not given, 2 h; relative to: untreated cells): 2.09
Cc1cccc(-c2[nH]c(CNc3ccccc3F)nc2-c2ccc3ncnn3c2)n1  XTT absorbance (pomalidomide-resistant MM1.S cells; XTT; 2.5 µM; higher = more viable cells): 1.1 E-1 and 1.4 E-1 and 0.8 E-1
CC/C(=N\NC(=O)NCc1cccc(O)c1)c1ccc(O)c(C)c1O  log ratio (SK-OV-3; gene expression, microarray, item: TNFSF10; 10 µM, 24 h; relative to: DMSO): -3.12
Cc1nc2ccc(N(Cc3ccc(F)cc3)Cc3ccc(F)cc3)cc2[nH]1  viability (sample A patient iPSC-derived NPCs; MTS; 10 µM, 24 h; relative to: vehicle): 123 ± 15.1%
C=C1C(=O)O[C@H]2[C@H]1[C@H](OC(=O)/C(C)=C\C)CC(=C)[C@@H]1[C@H](O)[C@H]3O[C@@]3(C)[C@@]12O  EC50 (iPSC-derived cardiomyocytes; concentration-response curve, item: MyBP-C protein level): 54.1 µM
C=C(C)[C@@H](CC=C(C)C)C[C@@]12C[C@@H](CC=C(C)C)C(C)(C)[C@@](CC=C(C)C)(C(=O)C(C(=O)c3ccc(O)c(O)c3)=C1O)C2=O  viability (OCI-Ly1; 0.1 µM, 120 h): 4.87%
COc1cccc(-c2ccc(NC(=O)C3=C(C(=O)O)CCC3)c(F)c2)c1  metabolic activity (COS-7; WST-8; 3 µM, 24 h, 0.1% DMSO, unit not given; relative to: vehicle control): 0.93 ± 0.06
O=C1N(Cc2cccc3ccccc23)c2ccccc2C12NN=C(c1ccccc1)S2 (stereo not shown)  protein level (NSCLC and TNBC cells; Western blot, item: cyclin B1; concentration not given): decreased
O=C(NO)c1cccc(C(=O)NCCc2ccccc2)c1  viability (OCI-Ly1; 0.1 µM, 120 h): 200%
CC(=O)c1nn(-c2ccc(Cl)cc2)/c(=N/N=C(\C)c2ccc(NC(=O)c3ccc(C)cc3)cc2)s1  toxicity (HepG2; 0.156 µM): 54.8%
CCCCc1nc(Cl)c(CO)n1Cc1ccc(-c2ccccc2-c2nn[nH]n2)cc1  log2 fold change (human PBMC; RNA-seq, item: MT1HL1 mRNA; 10 µg/mL, 24 h; relative to: untreated control): 2.46
CC(C)NCCCn1c(Sc2cc3c(cc2I)OCO3)nc2c(N)ncnc21  MyBP-C protein level (iPSC-derived cardiomyocytes; initial hit retest; concentration not given, 24 h, plate-normalised): 23%
C[C@H](NC(=O)C(=O)Nc1ccccc1C(C)(C)C)C(=O)N[C@@H](CC(=O)O)C(=O)COc1c(F)c(F)cc(F)c1F  LDH release (THP-1 GSDMD knockout, LPS-primed; inhibitor; 25 µM, 2 h, added: nigericin 6.25 µM): 20.5% and 37% and 19.3%
COc1cc(O)c2c(c1)C(=O)c1cc(C)cc(O)c1C2=O  cell viability (HepaRG co-cultured with HK-2; MTT; 33.33 µM, 24 h; relative to: untreated control): 97.2 ± 9.23%
Nc1ccccc1NC(=O)CCCCCCC(=O)Nc1ccccc1  viability (OCI-Ly1; 0.5 µM, 120 h): 90.7%
O=C(/C=C/C=C/C=C/C1CCCCC1)NC1=C[C@@](O)(/C=C/C=C/C=C/C(=O)NC2=C(O)CCC2=O)[C@@H]2O[C@@H]2C1=O  GI50 (jhos2; cell growth, inhibitor, CellTiter-Glo luminescence; 78 h; relative to: day 0 cell count): 13.4 µM
O=C1CCc2c(ccc3ccccc23)O1  viability (OCI-Ly1; 0.5 µM, 120 h): 173%
C=CCNC1=C2C[C@@H](C)C[C@H](OC)[C@H](O)[C@@H](C)/C=C(\C)[C@H](OC(N)=O)[C@@H](OC)/C=C\C=C(/C)C(=O)NC(=CC1=O)C2=O  EC50 (iPSC-derived cardiomyocytes; concentration-response curve, item: MyBP-C/MYH ratio; 24 h): 4.7 µM
[Cl-].[Cl-].[Ru+2].c1cnc2c(c1)ccc1cccnc12.c1cnc2c(c1)ccc1cccnc12.c1csc(-c2ccc(-c3ccc(-c4ccc(-c5nc6c7cccnc7c7ncccc7c6[nH]5)s4)s3)s2)c1  phototherapeutic index (SK-MEL-28; 1% O2): 985
COc1cc2ncnc(Nc3ccc(Oc4ccccc4)cc3C)c2cc1OC.O=C(O)C(F)(F)F  fractional effect (COLO 205 (BRAF V600E); resazurin; 1 µM, 72 h, added: trametinib 0 nM): 22%
COc1cnc2cccc(N3CCc4c(cc(Cn5ccnc5C)cc4-c4cn(C)nc4C(F)(F)F)C3=O)c2c1  EC50 (MV4-11; cell growth, inhibitor; 120 h): 0.0643 µM
CCCCN1C[C@H](O)[C@@H](O)[C@@H](O)[C@H]1CO  IC50 (sample G patient fibroblasts; acidic compartment staining, LysoTracker Red imaging; 216 h): 2.9 µM
Cc1cc(Nc2ncc(Cl)c(Nc3ccccc3S(=O)(=O)C(C)C)n2)c(OC(C)C)cc1C1CCNCC1  log2 fold change (CLB-GE; phosphoproteomics LC-MS/MS, item: IWS1 phosphorylation; 200 nM, 60 min; relative to: untreated): -1.93
Clc1ccc(-c2csc(NN=C3CCCC3)n2)cc1  viability (OCI-Ly1; 0.5 µM, 120 h): 111%
O=C(C[C@@H](C(F)F)n1ccc(F)n1)N1CCC(O)(Cn2cnc3c(cnn3-c3ccc(F)cc3)c2=O)CC1  apoptotic cells (early plus late) (CHP-212 parental (wild-type USP7); annexin V-PI flow cytometry; 1 µM, 48 h): 44.4% and 40.5% and 36.4% and 53.8% and 50.3% and 34.5%
CCCC(CCC)C(=O)O  viability (OCI-Ly1; 1 µM, 120 h): 147%
CCn1cc(-c2cc(Cn3ccnc3)cc3c2CCN([C@H](c2cc(OC)ccn2)C2CC2)C3=O)c(C(F)(F)F)n1  EC50 (KMS-11; cell growth, inhibitor; 120 h): > 30 µM
Nc1ncnc2c1ncn2[C@@H]1O[C@H](CO)[C@@H](O)[C@H]1O  IFNγ production (activated human T cells; 3.16 µM; higher = more IFNγ): 344 a.u. and 549 a.u. and 335 a.u.
C=C1C(=O)O[C@@H]2C[C@@]3(C)CCCC(=C)[C@@H]3C[C@H]12  confluence (COS-7; 10 µM, 24 h, 0.1% DMSO, unit not given; relative to: vehicle control): 0.81 ± 0.12
CCCCc1oc2ccc(NS(C)(=O)=O)cc2c1C(=O)c1ccc(OCCCN(CCCC)CCCC)cc1  fold change (human embryonic stem cell aggregates; mRNA level, microarray, item: NR2F2; 0.5 µM, 120 h; relative to: untreated, down-regulated): 3.5 fold
Cn1c(Nc2nc3ccc(C(F)(F)F)cc3s2)nc2cc(C(=O)NCCOCCO)ccc21  fold change (SH-SY5Y; RNA-seq, item: SLC12A8 mRNA; 5 µM, 5 h; relative to: untreated cells): 3.11
C[C@H](CCC(=O)NCCS(=O)(=O)O)[C@H]1CC[C@H]2[C@@H]3CC[C@@H]4C[C@H](O)CC[C@]4(C)[C@H]3CC[C@]12C  proliferation increase (rat PCK cystic cholangiocytes; cell confluence; 20 µM, 48 h; relative to: untreated): 62%
CCc1cc2c(N3CCN(c4nncs4)CC3)ncnc2s1  viability (OCI-Ly1; 0.5 µM, 120 h): 88.8%
COc1ccc(NC(=S)N/N=C/c2cccc3cc4ccccc4nc23)cc1  S phase cells (HeLa; PI flow cytometry; IC25, 48 h, added: N-acetylcysteine): 27.1 ± 1.4%
C=CC(=O)N1[C@@H](c2ccc3c(c2)OCO3)c2[nH]c3ccccc3c2C[C@H]1C(=O)NC  neuron degeneration (rat DRG neurons; 0.3704 µM, 48 h, added: vincristine 40 nM): 73.3% and 82.4%
[Cl-].[Cl-].[Ru+2].c1cnc2c(c1)ccc1cccnc12.c1cnc2c(c1)ccc1cccnc12.c1csc(-c2ccc(-c3ccc(-c4nc5c6cccnc6c6ncccc6c5[nH]4)s3)s2)c1  phototherapeutic index (SK-MEL-28; normoxia, added: green light 523 nm): 370
C=C1C(=O)O[C@H]2[C@H]1CCC(C)=C1CC[C@@](C)(O)[C@@H]12  fitted top MyBP-C level (iPSC-derived cardiomyocytes; concentration-response fit; concentration not given; relative to: vehicle): 91%

Repeated from above:
C=C1C(=O)O[C@H]2[C@H]1[C@H](OC(=O)/C(C)=C\C)CC(=C)[C@@H]1[C@H](O)[C@H]3O[C@@]3(C)[C@@]12O  EC50 (iPSC-derived cardiomyocytes; concentration-response curve, item: MyBP-C protein level): 54.1 µM
C=C(C)[C@@H](CC=C(C)C)C[C@@]12C[C@@H](CC=C(C)C)C(C)(C)[C@@](CC=C(C)C)(C(=O)C(C(=O)c3ccc(O)c(O)c3)=C1O)C2=O  viability (OCI-Ly1; 0.1 µM, 120 h): 4.87%
COc1cccc(-c2ccc(NC(=O)C3=C(C(=O)O)CCC3)c(F)c2)c1  metabolic activity (COS-7; WST-8; 3 µM, 24 h, 0.1% DMSO, unit not given; relative to: vehicle control): 0.93 ± 0.06
O=C1N(Cc2cccc3ccccc23)c2ccccc2C12NN=C(c1ccccc1)S2 (stereo not shown)  protein level (NSCLC and TNBC cells; Western blot, item: cyclin B1; concentration not given): decreased
